Experimental data gathered from unrelated publications.
± gives the spread as reported.
CNR1: Cannabinoid receptor 1 (CNR1, Homo sapiens, UniProt P21554)
Sequence of UniProt P21554 (whole entry, looked up): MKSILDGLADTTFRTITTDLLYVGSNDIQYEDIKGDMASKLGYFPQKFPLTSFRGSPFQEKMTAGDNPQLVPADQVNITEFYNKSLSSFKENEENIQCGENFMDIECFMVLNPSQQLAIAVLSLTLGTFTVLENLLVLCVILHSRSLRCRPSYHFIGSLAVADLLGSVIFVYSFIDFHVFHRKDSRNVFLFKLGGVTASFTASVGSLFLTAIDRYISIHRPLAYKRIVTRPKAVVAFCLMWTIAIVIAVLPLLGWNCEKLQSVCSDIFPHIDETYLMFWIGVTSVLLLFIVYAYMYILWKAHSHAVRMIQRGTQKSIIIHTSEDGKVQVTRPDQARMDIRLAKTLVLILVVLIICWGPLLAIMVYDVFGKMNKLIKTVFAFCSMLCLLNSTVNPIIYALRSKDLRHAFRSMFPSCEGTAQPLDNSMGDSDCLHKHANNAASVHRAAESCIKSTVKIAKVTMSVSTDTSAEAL
Oprd1: Delta-type opioid receptor (Oprd1, Rattus norvegicus, UniProt P33533)
Sequence of UniProt P33533 (whole entry, looked up): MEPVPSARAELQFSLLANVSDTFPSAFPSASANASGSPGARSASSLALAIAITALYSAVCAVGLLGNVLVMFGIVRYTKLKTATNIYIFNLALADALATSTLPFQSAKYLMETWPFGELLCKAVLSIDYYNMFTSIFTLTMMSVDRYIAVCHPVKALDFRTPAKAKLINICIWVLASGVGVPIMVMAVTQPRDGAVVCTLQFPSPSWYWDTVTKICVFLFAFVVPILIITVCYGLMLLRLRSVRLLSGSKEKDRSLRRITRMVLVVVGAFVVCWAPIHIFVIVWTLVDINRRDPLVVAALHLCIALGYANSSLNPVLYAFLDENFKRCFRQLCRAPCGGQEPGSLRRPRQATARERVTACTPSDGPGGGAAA
Gabrg2/Gabra1 with β3 subunit: Gabrg2/Gabra1, with β3 subunit (Rattus norvegicus, UniProt P18508+P62813)
Sequence of UniProt P18508 (whole entry, looked up): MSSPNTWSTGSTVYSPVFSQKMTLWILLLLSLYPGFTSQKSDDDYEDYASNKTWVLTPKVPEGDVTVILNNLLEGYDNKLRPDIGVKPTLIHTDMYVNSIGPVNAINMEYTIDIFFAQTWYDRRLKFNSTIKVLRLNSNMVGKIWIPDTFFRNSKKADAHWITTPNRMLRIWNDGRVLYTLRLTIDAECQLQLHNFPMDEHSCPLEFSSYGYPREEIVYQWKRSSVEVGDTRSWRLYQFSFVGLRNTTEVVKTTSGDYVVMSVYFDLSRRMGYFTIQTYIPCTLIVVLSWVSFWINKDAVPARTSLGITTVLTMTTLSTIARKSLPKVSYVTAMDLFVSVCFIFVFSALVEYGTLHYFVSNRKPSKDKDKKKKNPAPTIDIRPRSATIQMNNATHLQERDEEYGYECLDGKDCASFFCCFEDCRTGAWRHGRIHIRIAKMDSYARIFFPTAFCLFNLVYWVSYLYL
Sequence of UniProt P62813 (whole entry, looked up): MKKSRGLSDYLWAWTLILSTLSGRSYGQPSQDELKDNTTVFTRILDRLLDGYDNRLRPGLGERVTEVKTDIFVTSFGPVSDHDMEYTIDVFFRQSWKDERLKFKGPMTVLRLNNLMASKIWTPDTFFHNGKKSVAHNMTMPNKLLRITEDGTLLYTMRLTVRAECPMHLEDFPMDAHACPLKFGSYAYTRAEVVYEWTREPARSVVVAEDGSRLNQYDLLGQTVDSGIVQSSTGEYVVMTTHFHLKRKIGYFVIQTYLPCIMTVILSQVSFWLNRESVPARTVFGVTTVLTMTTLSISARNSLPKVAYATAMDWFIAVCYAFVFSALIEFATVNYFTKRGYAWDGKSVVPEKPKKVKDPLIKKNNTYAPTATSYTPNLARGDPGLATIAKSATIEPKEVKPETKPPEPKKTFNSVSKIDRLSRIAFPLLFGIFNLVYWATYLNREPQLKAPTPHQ
Ryanodine receptor 1: Ryanodine receptor 1 (Oncorhynchus mykiss, UniProt A0A8C7UX14)
Sequence of UniProt P28471 (whole entry, looked up): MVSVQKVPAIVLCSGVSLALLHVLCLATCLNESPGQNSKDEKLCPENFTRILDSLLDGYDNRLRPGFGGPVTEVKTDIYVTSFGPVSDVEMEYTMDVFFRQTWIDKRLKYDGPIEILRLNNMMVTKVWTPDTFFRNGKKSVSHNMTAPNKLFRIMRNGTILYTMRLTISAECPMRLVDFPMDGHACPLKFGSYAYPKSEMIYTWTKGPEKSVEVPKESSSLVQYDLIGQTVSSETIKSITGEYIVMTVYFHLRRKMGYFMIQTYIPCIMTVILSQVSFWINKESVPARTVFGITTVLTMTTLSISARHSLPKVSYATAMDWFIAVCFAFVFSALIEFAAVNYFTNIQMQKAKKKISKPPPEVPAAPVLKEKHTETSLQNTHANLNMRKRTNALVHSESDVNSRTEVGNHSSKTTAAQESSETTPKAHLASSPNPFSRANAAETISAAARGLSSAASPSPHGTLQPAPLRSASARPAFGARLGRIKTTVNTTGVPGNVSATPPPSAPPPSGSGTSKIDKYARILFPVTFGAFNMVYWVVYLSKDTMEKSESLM

SMILES	target	test	test system	setting	how to read	Emax [%]
CC(C)(NC(=O)c1nn(Cc2ccc(C#N)cc2)c2ccccc12)c1cccc(C(N)=O)c1	CNR1	calcium mobilization, agonist	CHO-K1 expressing Gαq16	–	reference: CP55,940 maximum	15 ± 3
NC(=O)[C@@H]1CSCSC[C@@H](NC(=O)[C@@H](N)Cc2ccc(O)cc2)C(=O)N[C@@H](Cc2cccc3ccccc23)C(=O)N[C@@H](Cc2ccccc2)C(=O)N1	Oprd1	G-protein activation, agonist	C6 cell membranes	–	reference: SNC80 at 10 µM	15 to 23
CCOC(=O)c1ncn2c1CN(C)C(=O)c1cc(F)ccc1-2	Gabrg2/Gabra4, with β3 subunit (Rattus norvegicus, UniProt P18508+P28471)	GABA-induced chloride current, two-electrode voltage clamp	Xenopus oocytes	rat α4β3γ2 receptor, added: GABA EC3	reference: GABA EC3 alone	181 ± 10
NC(=O)[C@@H]1CSCSC[C@@H](NC(=O)[C@@H](N)Cc2ccc(O)cc2)C(=O)N[C@@H](Cc2ccc3ccccc3c2)C(=O)N[C@@H](Cc2ccccc2)C(=O)N1	Oprd1	G-protein activation, agonist	C6 cell membranes	–	reference: SNC80 at 10 µM	15 to 23
CNC(=O)c1cc2c(cn1)[nH]c1ccccc12	Gabrg2/Gabra1 with β3 subunit	GABA-induced chloride current, two-electrode voltage clamp	Xenopus oocytes	added: GABA at EC3	–	88 ± 5
C[C@@H](NC(=O)c1nn(Cc2ccc(F)cc2)c2ccccc12)c1cccc(C(N)=O)c1	CNR1	calcium mobilization, agonist	CHO-K1 expressing Gαq16	–	reference: CP55,940 maximum	23 ± 2
Clc1ccc(Cl)c(-c2c(Cl)ccc(Cl)c2Cl)c1	Ryanodine receptor 1	[3H]ryanodine binding	rainbow trout, skeletal muscle microsomes	up to 20 µM	reference: DMSO	237 ± 5.69
CC(C)(C)c1cc(C(C)(C)C)c(NC(=O)c2c[nH]c3ccccc3c2=O)cc1O	CFTR (Homo sapiens, UniProt P13569, del508-508)	chloride current, potentiator, Ussing chamber	CFBE41o- F508del	3 µM, added: VX-809 24 h	reference: reference potentiator	100
Clc1cc(Cl)c(-c2c(Cl)ccc(Cl)c2Cl)cc1Cl	Ryanodine receptor 1	[3H]ryanodine binding	rainbow trout, skeletal muscle microsomes	up to 20 µM	reference: DMSO	258 ± 4.45
CC(C)(NC(=O)c1nn(Cc2ccc(F)cc2F)c2ccccc12)c1cccc(C(N)=O)c1	CNR1	calcium mobilization, agonist	CHO-K1 expressing Gαq16	–	reference: CP55,940 maximum	~32
Clc1cccc(-c2cccc(Cl)c2Cl)c1	Ryanodine receptor 1	[3H]ryanodine binding	rainbow trout, skeletal muscle microsomes	up to 20 µM	reference: DMSO	116 ± 3.13
CC(C)(C)OC(=O)c1ncn2c1[C@@H]1CCCN1C(=O)c1c(Br)cccc1-2	Gabrg2/Gabra1 with β3 subunit	GABA-induced chloride current, two-electrode voltage clamp	Xenopus oocytes	added: GABA at EC3	–	138 ± 10
Clc1ccc(Cl)c(-c2cccc(Cl)c2Cl)c1	Ryanodine receptor 1	[3H]ryanodine binding, activator	trout muscle microsomes	concentration not given	reference: DMSO	> 160
CC(C)(NC(=O)c1nn(Cc2ccc(F)cc2)c2ccccc12)C1CCCN(CC(N)=O)C1 (stereo not shown)	CNR1	calcium mobilization, agonist	CHO-K1 expressing Gαq16	–	reference: CP55,940 maximum	44 ± 4
Clc1ccc(Cl)c(-c2c(Cl)c(Cl)cc(Cl)c2Cl)c1	Ryanodine receptor 1	[3H]ryanodine binding	rainbow trout, skeletal muscle microsomes	up to 20 µM	reference: DMSO	177 ± 8.38
CC(C)(NC(=O)c1nn(Cc2ccc(F)cc2)c2ccccc12)c1cccc(NC(N)=O)c1	CNR1	calcium mobilization, agonist	CHO-K1 expressing Gαq16	–	reference: CP55,940 maximum	40 ± 9

Excerpt of the above:
SMILES	target	test	test system	setting	how to read	Emax [%]
NC(=O)[C@@H]1CSCSC[C@@H](NC(=O)[C@@H](N)Cc2ccc(O)cc2)C(=O)N[C@@H](Cc2ccc3ccccc3c2)C(=O)N[C@@H](Cc2ccccc2)C(=O)N1	Oprd1	G-protein activation, agonist	C6 cell membranes	–	reference: SNC80 at 10 µM	15 to 23
CC(C)(NC(=O)c1nn(Cc2ccc(F)cc2F)c2ccccc12)c1cccc(C(N)=O)c1	CNR1	calcium mobilization, agonist	CHO-K1 expressing Gαq16	–	reference: CP55,940 maximum	~32
